Results gathered from unrelated publications.
Numbered parts are unrelated; each lists some results of a single study. Changes are numbered by the printed parent chain.

Block 1 — method: DHFR PCA, deep sequencing; matrix: yeast; together with: (+)-ABA 200 µM; reference: wild-type fitted maximum; direction: higher = stronger binding
Target: ABI1, truncated, D143A, DHFR fusion (Arabidopsis thaliana)
Setting: methotrexate growth selection, single substitutions
Parent: PYL1, truncated, DHFR fusion (Arabidopsis thaliana); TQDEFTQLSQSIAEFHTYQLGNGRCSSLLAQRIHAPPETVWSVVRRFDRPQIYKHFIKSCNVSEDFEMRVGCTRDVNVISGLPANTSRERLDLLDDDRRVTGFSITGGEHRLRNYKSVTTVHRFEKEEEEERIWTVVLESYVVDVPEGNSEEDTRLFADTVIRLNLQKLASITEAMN; partner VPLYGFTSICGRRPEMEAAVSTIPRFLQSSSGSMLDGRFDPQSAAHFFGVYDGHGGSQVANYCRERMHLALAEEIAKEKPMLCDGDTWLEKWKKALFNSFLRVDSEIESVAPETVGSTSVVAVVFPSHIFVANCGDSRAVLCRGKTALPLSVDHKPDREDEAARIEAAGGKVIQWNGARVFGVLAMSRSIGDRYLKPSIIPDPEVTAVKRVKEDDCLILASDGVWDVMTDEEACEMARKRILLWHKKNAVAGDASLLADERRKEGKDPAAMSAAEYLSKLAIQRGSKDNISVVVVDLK
| Variant | relative binding score [%] |
| --- | --- |
| Y53F | 91.1 |
| L8G | 55.7 |
| T119S | 66.5 |
| C60S | 79.3 |
| Q2I | 97.7 |
| E130Y | 95.3 |
| E38F | 60 |
| V142R | 85.5 |
| G107R | 68.8 |

Block 2 — method: protein-binding microarray; form: double-stranded DNA, one strand shown; matrix: in vitro; tested at: 2200 nM top; setting: 60-bp whole probe; together with: salmon DNA 0.4 mg/ml; reference: random background probes; direction: higher = stronger binding; shared flanks, not repeated: GCCTAGCAC … GTCTTGATTCGCTTGACGCTGCTG
Target: Interferon regulatory factor 7, full length, phosphomimetic (IRF7, Homo sapiens, UniProt Q92985, residues 1-503, S471D/S472D/S475D/S476D/S477D/S483D/S484D/S487D)
Residues (chain): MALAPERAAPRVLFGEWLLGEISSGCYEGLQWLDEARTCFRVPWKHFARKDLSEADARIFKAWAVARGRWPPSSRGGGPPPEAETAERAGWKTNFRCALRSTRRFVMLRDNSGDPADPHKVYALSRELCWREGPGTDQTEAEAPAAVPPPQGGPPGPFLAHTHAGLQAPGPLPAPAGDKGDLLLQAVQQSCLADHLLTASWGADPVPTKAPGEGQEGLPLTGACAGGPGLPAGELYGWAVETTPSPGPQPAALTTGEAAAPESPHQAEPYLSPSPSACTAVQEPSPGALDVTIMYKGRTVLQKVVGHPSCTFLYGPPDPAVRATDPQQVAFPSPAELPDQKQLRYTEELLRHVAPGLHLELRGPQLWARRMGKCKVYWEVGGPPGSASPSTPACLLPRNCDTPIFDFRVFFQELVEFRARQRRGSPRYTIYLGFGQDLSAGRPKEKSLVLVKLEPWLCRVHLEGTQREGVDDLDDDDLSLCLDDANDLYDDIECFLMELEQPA
| Oligonucleotide | fitted relative affinity [z-score] |
| --- | --- |
| TTAGTACTGGGTCTCGGTTAGTGCTAG | 0.53 |
| TTAGATATAGGGTTTCGATTAGTGCTA | 1.83 |
| GAAAATTAGTGTTTTGCCCTGTGCTAG | 1.16 |
| GACGGTATCGGACGGGGGACGTGCTAG | 0.308 |
| GACGGTCTCCTTATCCTGACGTGCTAG | 1.06 |
| GACGGTTTCGGTTTCGGGCCGTGCTAG | 14.3 |
| GACGGTCTCCGTATCCTGACGTGCTAG | 0.524 |
| GACGGTCTCCTTCTCCTTACGTGCTAG | 1.2 |

Block 3 — target: CCND1, cyclin fold, Cln2 fusion (human); method: yeast growth competition, sequencing; matrix: yeast; setting: strong parent motif; reference: not given; direction: higher = stronger binding
Parent: RBL2 docking peptide (human); STTRRRLFVENDS; partner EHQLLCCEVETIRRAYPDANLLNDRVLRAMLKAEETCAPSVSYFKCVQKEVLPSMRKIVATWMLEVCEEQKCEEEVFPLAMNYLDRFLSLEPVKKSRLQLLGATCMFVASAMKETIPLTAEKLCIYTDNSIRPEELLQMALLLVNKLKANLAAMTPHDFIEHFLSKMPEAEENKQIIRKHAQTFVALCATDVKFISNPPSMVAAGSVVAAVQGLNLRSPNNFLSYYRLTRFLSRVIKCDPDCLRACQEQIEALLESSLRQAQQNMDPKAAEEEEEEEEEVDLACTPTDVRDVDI
| Variant | normalised enrichment score |
| --- | --- |
| E10V | 0.486 |
| R4V | 1.04 |
| S1W | -0.11 |
| T3P | 1.16 |
| D12A | 0.16 |
| T2H | 0.701 |
| F8G | 0.0965 |

Mixed results
| Substance | target | assay | test system | conditions | scale | endpoint | result |
| --- | --- | --- | --- | --- | --- | --- | --- |
| PhoQ, residues 284 288 289 292 302 303 NLMGRA | PhoP, residues 12 14 15 18 19 LYFRQ (Escherichia coli, UniProt P23836) | Sort-seq, refers to: YFP reporter | E. coli | PhoQ-PhoP variant library, together with: 10 µM Mg2+ | reference: high Mg2+ state, higher = stronger signaling | fold induction | 5.03 |
